Measurements collected from several papers.
Protocols differ between the studies behind these lines. Numbers after ± are the reported error.

| Structure (SMILES) | assay | system | setting | scale | endpoint | value |
| --- | --- | --- | --- | --- | --- | --- |
| CC[C@H](C)C(=O)N1CCC(NC(=O)Nc2ccc(OC(F)(F)F)c(F)c2)CC1 |  | healthy volunteers | oral, 0.5 mg single dose |  | subjects with feeling hot TEAE | 0% |
| Cn1cc(-c2cccc(CN3CCC4(CC3)COc3c4ccc4c3CN([C@H]3CCC(=O)NC3=O)C4=O)c2)cn1 |  | mouse Crbn I391V, thymus | oral, 100 mg/kg, 6 h |  | tissue concentration | 2850 ng/g |
| CCCCCCCC/C=C\CCCCCCCCOP(O)(O)=S.N |  | mouse, male, irradiated | sc, dose not given, 15.6 Gy partial-body, dosed 24 h after |  | Cmax | 622 ng/mL |
| CC(C)C[C@@H](N)C(=O)NCC(=O)N[C@H](C)C(=O)N[C@H](CO)C(=O)N[C@H](Cc1c[nH]c2ccccc12)C(=O)N[C@H](Cc1c[nH]cn1)C(=O)N[C@H](CCCNC(=N)N)C(=O)N1CCC[C@@H]1C(=O)N[C@H](CC(=O)O)C(=O)N[C@H](CCCCN)C(=O)N[C@H](CS)C(=O)N[C@H](CS)C(=O)N[C@H](CC(C)C)C(=O)NCC(=O)N[C@H](Cc1ccc(O)cc1)C(=O)N[C@H](CCC(N)=O)C(=O)N[C@H](CCCCN)C(=O)N[C@H](CCCNC(=N)N)C(=O)N1CCC[C@@H]1C(=O)N[C@H](CC(C)C)C(=O)N1CCC[C@@H]1C(N)=O | LC-MS/MS | rat plasma | 5000 ng/mL, 30 days, -80 °C, storage | baseline: nominal | accuracy | 111% |
| COC(=O)C[C@H](NC(=O)[C@H](C)NC(=O)[C@@H](NC(=O)[C@H](CC(=O)OC)NC(=O)[C@@H](NC(=O)c1ccc2ccccc2n1)C(C)C)C(C)C)C(=O)COc1c(F)cccc1F |  | rat pups | 1 mg/kg, 3 h |  | core body temperature | 36.4 ± 0.67 °C |
| CCCCCCCCCCCCC(=O)O.O=C1CCCC2C3CCCN4CCCC(CN12)C34 (stereo not shown) |  | water | concentration not given, 303.15 K |  | limiting apparent molar volume | 427.52 ± 0.28 cm³/mol |
| COC(=O)C[C@](O)(CCCC(C)(C)OC(C)=O)C(=O)O[C@@H]1C(OC)=C[C@]23CCCN2CCc2cc4c(cc2[C@H]13)OCO4 |  | CD1 mouse, plasma | oral, 1 mg/kg, 0.5 h |  | concentration | 615 ng/mL |
| CC[C@H](C)[C@H](NC(=O)[C@H](C)NC(=O)[C@H](CCCNC(=N)N)NC(=O)CNC(=O)CNC(=O)[C@H](CCCNC(=N)N)NC(=O)[C@H](CCCNC(=N)N)NC(=O)[C@H](CCCNC(=N)N)NC(=O)[C@H](CCC(N)=O)NC(=O)[C@H](CCCNC(=N)N)NC(=O)[C@H](CCCNC(=N)N)NC(=O)[C@H](CCCCN)NC(=O)[C@H](CCCCN)NC(=O)[C@H](CCCNC(=N)N)NC(=O)CNC(=O)[C@@H](N)Cc1ccc(O)cc1)C(=O)N[C@H](C(=O)N[C@H](C(=O)N[C@@H](CC(C)C)C(=O)N[C@@H](CC(=O)O)C(=O)N[C@H](C(=O)N[C@@H](CCC(=O)O)C(=O)N[C@@H](CCCCN)C(=O)N[C@@H](CO)C(=O)O)[C@@H](C)O)[C@@H](C)CC)[C@@H](C)O |  | rat, TRPV1 knockout, myocardial infarction | dose not given, 15 min ischemia |  | rectal body temperature | 37.1 ± 0.1 °C |
| CC(C)[C@H](NC(=O)CNC(=O)[C@H](CCC(N)=O)NC(=O)[C@H](C)N)C(=O)O |  | human | 10 mg/kg single dose |  | discontinuation due to adverse events | 0% |
| Cc1ccc(/C=C/C(=O)O)cc1-c1cc2c(cc1C)C(C)(C)CCC2(C)C |  | Sprague-Dawley rat, male | oral, 100 mg/kg, 3 h, sesame oil vehicle |  | blood cholesterol | 81 ± 14.8 mg/dL |
| O=c1oc2cc(O)ccc2c2cc(O)c(O)cc12 | potentiometric titration | water, extrapolated from methanol/water | 25 °C |  | pKa2 | 9.1 |
| CCN(Cc1ccccc1)C(=O)CCc1nc(CN2CCN(C(=O)Cc3ccc(OC)c(OC)c3)CC2)no1 |  | rat, kidney | intravenous, 1 mg/kg, 5 min, single dose |  | concentration | < 1.8 ng/g |
| CC(C)C[C@H](NC(=O)[C@H](Cc1ccc(O)cc1)NC(=O)[C@H](Cc1c[nH]cn1)NC(=O)[C@H](CC(=O)O)NC(=O)[C@H](CC(C)C)NC(=O)[C@H](C)NC(=O)[C@H](CC(C)C)NC(=O)CNC(=O)CNC(=O)[C@@H](NC(=O)[C@@H](NC(=O)[C@H](CCCCN)NC(=O)CNC(=O)[C@@H](NC(=O)[C@H](CCCCN)NC(=O)[C@H](CCCCN)NC(=O)[C@H](C)NC(=O)[C@H](CCCCN)NC(=O)[C@H](CCCNC(=N)N)NC(=O)[C@H](Cc1ccccc1)NC(=O)[C@@H](NC(=O)[C@H](CO)NC(=O)[C@H](CCCCN)NC(=O)[C@H](Cc1c[nH]c2ccccc12)NC(=O)CN)C(C)C)C(C)C)[C@@H](C)O)C(C)C)C(N)=O |  | zebrafish embryos | 1 h, 4, 28, 52 hpf |  | acute toxic concentration | 5 µg/mL |
| O=C(c1ccc(F)cc1)C1CCN(C2Cc3c(cccc3OCC[18F])CC2O)CC1 (single isomer, unassigned; (-)) |  | cynomolgus monkey, arterial blood | dose not given, plasma over whole blood |  | plasma radioactivity fraction | 70 to 82% |
| CC[C@@H]1C[C@]1(NC(=O)[C@@H]1C[C@@]2(CN1C(=O)[C@@H](NC(=O)[C@@H](NC(=O)[C@@H]1CCCCN1C(C)C)C1CCCCC1)C(C)(C)C)C(C)(C)C21CCC1)C(=O)NS(=O)(=O)N1CCCC1 |  | human | oral, 50 mg, together with: ritonavir | baseline: without ritonavir | fold increase in AUC(0-inf) | ~43 fold |
| COc1cc(NC(=O)C(=O)c2c(C)n(Cc3ccc(Cl)cc3)c3ccc(C)cc23)ccn1 |  | male cynomolgus monkey, plasma | intravenous, 1 mg/kg |  | AUC(0-inf) | 2180 ng·h/mL |
| CC[C@@H](C)[C@H](NC(=O)[C@H](C)NC(=O)[C@H](CCCCN)NC(=O)[C@H](CC(C)C)NC(=O)[C@H](C)NC(=O)[C@@H](NC(=O)[C@H](Cc1c[nH]cn1)NC(=O)[C@H](CC(C)C)NC(=O)[C@@H](NC(=O)[C@@H](NC(=O)[C@H](CCCCN)NC(=O)[C@H](CCCCN)NC(=O)[C@H](C)NC(=O)[C@H](CO)NC(=O)[C@H](CCCCN)NC(=O)[C@H](Cc1ccccc1)NC(=O)[C@@H](NC(=O)[C@H](CCCCN)NC(=O)[C@H](CC(C)C)NC(=O)[C@H](Cc1ccccc1)NC(=O)[C@H](CO)NC(=O)[C@H](CCCCN)NC(=O)[C@H](Cc1c[nH]c2ccccc12)NC(=O)[C@H](CCCCN)NC(C)=O)[C@@H](C)O)[C@@H](C)O)C(C)C)[C@@H](C)O)C(=O)N[C@@H](CO)C(=O)N[C@@H](CO)C(N)=O | circular dichroism at 222 nm | KCl phosphate buffer | 75 µM, pH 7.4, 65 °C |  | mean residue ellipticity | -3000 deg cm² dmol⁻¹ |
| [CH3][Ti+2][O]C(=O)c1ccc([S][Au][PH](c2ccccc2)(c2ccccc2)[c-]2cccc2)cc1.[Fe+2].c1cc[cH-]c1.c1cc[cH-]c1.c1cc[cH-]c1 |  | solid in air and CDCl3 | room temperature |  | stability time | ≥ 5 days |
| C[C@@H](O)[C@H](NC(=O)[C@H](CCCCN)NC(=O)[C@H](Cc1c[nH]c2ccccc12)NC(=O)CN)C(=O)N[C@@H](CCCNC(=N)N)C(=O)NC(C)(C)C(=O)N[C@@H](CCCNC(=N)N)C(=O)NC(C)(C)C(=O)N[C@H](C(=O)N[C@@H](CO)C(=O)N[C@@H](Cc1c[nH]cn1)C(=O)N[C@@H](Cc1ccc(O)cc1)C(=O)NCC(=O)O)[C@@H](C)O |  | C57BL/6 mouse, blood | intravenous, 50 mg/kg, 10 h |  | mean corpuscular haemoglobin | 11.1 to 12.7 pg |
| CN(C)C(CNC(=O)Nc1cc(C(F)(F)F)ccc1N1CCOCC1)c1ccncc1 (stereo not shown) |  | mouse, serum | intraperitoneal, 120 mg/kg single dose |  | serum anion gap | 23 mmol/L |
| CSCC[C@@H]1NC(=O)[C@@H]2CSSC[C@H](NC(=O)[C@H](CO)NC(=O)[C@H](C)N)C(=O)N[C@@H](CCCNC(=N)N)C(=O)N[C@@H]([C@@H](C)O)C(=O)N3CCC[C@H]3C(=O)N[C@@H](CCCCN)C(=O)N[C@@H](CC(=O)O)C(=O)N[C@H]3CSSC[C@H](NC(=O)[C@H](CCCCN)NC(=O)[C@H](CCCNC(=N)N)NC(=O)[C@H](CC(N)=O)NC1=O)C(=O)N[C@@H](CCCCN)C(=O)N[C@H]1CSSC[C@H](NC(=O)[C@@H]4CCCN4C(=O)[C@H](CC(=O)O)NC(=O)[C@H](C)NC3=O)C(=O)N[C@@H](C)C(=O)N[C@@H](CCCCN)C(=O)N[C@@H](CCC(=O)O)C(=O)N[C@@H]([C@@H](C)O)C(=O)NCC(=O)N[C@@H](CSSC[C@@H](C(N)=O)NC(=O)[C@H](CCCNC(=N)N)NC(=O)[C@H](CC(N)=O)NC1=O)C(=O)N1CCC[C@H]1C(=O)N[C@@H](Cc1ccc(O)cc1)C(=O)NCC(=O)N[C@@H](CCCCN)C(=O)N2 |  | DA rat, pristane-induced arthritis, serum | subcutaneous, single 0.1 mg/kg at onset, end of 21-day trial |  | ALT | 52.2 U/L |
| CC1N=C(c2ccccc2F)c2cc(Br)ccc2-n2cnc(C(=O)OC3OC(CO)C(O)C(O)C3O)c21 (stereo not shown) | LC-MS/MS | Swiss Webster mouse, female, urine | intraperitoneal, 750 µg parent drug, 0 to 24 h |  | cumulative excretion | 13.9 ± 7.1% |

Excerpt of the above:
| Structure (SMILES) | assay | system | setting | scale | endpoint | value |
| --- | --- | --- | --- | --- | --- | --- |
| C[C@@H](O)[C@H](NC(=O)[C@H](CCCCN)NC(=O)[C@H](Cc1c[nH]c2ccccc12)NC(=O)CN)C(=O)N[C@@H](CCCNC(=N)N)C(=O)NC(C)(C)C(=O)N[C@@H](CCCNC(=N)N)C(=O)NC(C)(C)C(=O)N[C@H](C(=O)N[C@@H](CO)C(=O)N[C@@H](Cc1c[nH]cn1)C(=O)N[C@@H](Cc1ccc(O)cc1)C(=O)NCC(=O)O)[C@@H](C)O |  | C57BL/6 mouse, blood | intravenous, 50 mg/kg, 10 h |  | mean corpuscular haemoglobin | 11.1 to 12.7 pg |
| CC(C)C[C@@H](N)C(=O)NCC(=O)N[C@H](C)C(=O)N[C@H](CO)C(=O)N[C@H](Cc1c[nH]c2ccccc12)C(=O)N[C@H](Cc1c[nH]cn1)C(=O)N[C@H](CCCNC(=N)N)C(=O)N1CCC[C@@H]1C(=O)N[C@H](CC(=O)O)C(=O)N[C@H](CCCCN)C(=O)N[C@H](CS)C(=O)N[C@H](CS)C(=O)N[C@H](CC(C)C)C(=O)NCC(=O)N[C@H](Cc1ccc(O)cc1)C(=O)N[C@H](CCC(N)=O)C(=O)N[C@H](CCCCN)C(=O)N[C@H](CCCNC(=N)N)C(=O)N1CCC[C@@H]1C(=O)N[C@H](CC(C)C)C(=O)N1CCC[C@@H]1C(N)=O | LC-MS/MS | rat plasma | 5000 ng/mL, 30 days, -80 °C, storage | baseline: nominal | accuracy | 111% |
